Experimental data collected from several papers.
Protocols differ between the studies behind these lines.

N#Cc1ccnc(N2C(=O)CC[C@H]2C(=O)N(c2cncc(F)c2)[C@H](C(=O)NC2CC(F)(F)C2)c2ccccc2Cl)c1
median Tmax (human patients; oral, 500 mg once daily, cycle 1 day 14, with: induction chemotherapy): 3.92 h

CN1C(=O)[C@@H](NC(=O)c2nnc(Cc3ccccc3)[nH]2)COc2ccccc21
median Tmax (human, male, whole blood; oral, 40 mg single dose, fasted): 2 h

CC(C)[C@H](N)C(=O)NCCCS(=O)(=O)O
median Tmax (human, plasma; oral, 265 mg tablet once daily, day 1, fed, multiple dosing): ~2 h

CCCCOC(=O)N1CCN(C(=O)[C@H](CP(=O)(O)O)NC(=O)c2cc(N3CC[C@H](OC)C3)nc(-c3ccccc3)n2)CC1
median Tmax (healthy human, plasma; subcutaneous, 4 mg, placebo i.v.): 0.5 h

CC(C)(O)CNc1nc(Nc2ccnc(C(F)(F)F)c2)nc(-c2cccc(C(F)(F)F)n2)n1
median Tmax (human patients; oral, 100 mg once daily, cycle 1 days 1 and 8, with: induction chemotherapy): 4.04 h

CC[C@@H]1C(=O)N(C)c2cnc(Nc3ccc(C(=O)N[C@H]4CC[C@H](N5CCN(CC6CC6)CC5)CC4)cc3OC)nc2N1C(C)C
median Tmax (human, plasma; intravenous infusion, 250 mg over 2 h, first infusion): 1.03 h

Cn1c(-c2ccc(C(N)=O)cc2F)nnc1C(C)(C)Oc1c(F)cc(Cl)cc1F
median Tmax (young non-Japanese humans, plasma; oral, 0.7 mg, day 1, single dose): 0.5 h

NCCCS(=O)(=O)O
median Tmax (human, plasma; oral, 100 mg loose-filled capsule, single dose): 1 h

For quick reference, copied from above:
NCCCS(=O)(=O)O
median Tmax (human, plasma; oral, 100 mg loose-filled capsule, single dose): 1 h
